{"data": "Experimental data of several laboratories", "target": "Prothrombin (F2, Homo sapiens, UniProt P00734)", "mode": "inhibitor", "note": "Each line is one published result; not all experiments were run side by side. ± marks the error that the study gave."}
{"SMILES": "Cc1ccc(C(=O)Nc2ccc(CP(=O)(O)O)cc2CP(=O)(O)O)cc1NC(=O)c1cccc(NC(=O)Nc2cccc(C(=O)Nc3cc(C(=O)Nc4ccc(CP(=O)(O)O)cc4CP(=O)(O)O)ccc3C)c2)c1", "observed": "enzyme activity", "method": "absorbance", "endpoint": "IC50", "result": "> 500 µM"}
{"SMILES": "COc1c(/C=C/C(=O)c2ccc(O)cc2)ccc(O)c1O", "observed": "enzyme activity", "method": "fluorescence", "notes": "with preincubation", "endpoint": "IC50", "result": "36.9 µM"}
{"SMILES": "CC[C@H](C)[C@H](NC(=O)[C@@H]1CSSC[C@H](NC(=O)[C@H](Cc2ccc(O)cc2)NC(=O)CN)C(=O)N[C@@H](CO)C(=O)N[C@@H](CCCNC(=N)N)C(=O)N[C@@H](CO)C(=O)N[C@@H](Cc2ccc(O)cc2)C(=O)N2CCC[C@H]2C(=O)N2CCC[C@H]2C(=O)N[C@@H](C(C)C)C(=O)N1)C(=O)N1CCC[C@H]1C(=O)N[C@@H](CC(=O)O)C(=O)O", "observed": "enzyme activity", "endpoint": "Ki", "result": "384 µM"}
{"SMILES": "Cc1cc(-c2ccc(/N=N/c3ccc4c(S(=O)(=O)O)cc(S(=O)(=O)O)c(N)c4c3O)c(C)c2)ccc1/N=N/c1ccc2c(S(=O)(=O)O)cc(S(=O)(=O)O)c(N)c2c1O", "observed": "enzyme activity", "method": "absorbance", "endpoint": "IC50", "result": "~8 µM"}
{"SMILES": "CC(C)CCC[C@@H](C)[C@H]1CC[C@H]2[C@@H]3CC=C4C[C@@H](OS(=O)(=O)O)CC[C@]4(C)[C@H]3CC[C@]12C", "observed": "fibrinogen clotting", "method": "turbidity", "pH": "pH 7.4", "endpoint": "IC50", "result": "176 ± 17.5 µM"}
{"SMILES": "O=C(Nc1ccc(C(=O)Nc2ccc(C(=O)Nc3ccc(S(=O)(=O)O)c4cc(S(=O)(=O)O)cc(S(=O)(=O)O)c34)cc2)cc1)Nc1ccc(C(=O)Nc2ccc(C(=O)Nc3ccc(S(=O)(=O)O)c4cc(S(=O)(=O)O)cc(S(=O)(=O)O)c34)cc2)cc1", "observed": "enzyme activity", "method": "absorbance", "endpoint": "IC50", "result": "> 100 µM"}
{"SMILES": "C=CC(C)(C)c1cc(/C=C/C(=O)c2ccc(O)cc2)c(OC)cc1O", "observed": "enzyme activity", "endpoint": "Ki", "result": "12.2 µM"}
{"SMILES": "CN(C(=O)c1ccn2ncc(-c3ccc(C(N)=O)cc3)c2c1)c1ccc(C#N)cn1", "observed": "enzyme activity", "endpoint": "IC50", "result": "> 30 µM"}
{"SMILES": "O=C1C[C@@H](c2ccc(O)cc2)Oc2cc(O[C@@H]3O[C@H](CO)[C@@H](O)[C@H](O)[C@H]3O)ccc21", "observed": "enzyme activity", "method": "fluorescence", "notes": "with preincubation", "endpoint": "IC50", "result": "> 100 µM"}
{"SMILES": "N=C(N)NCCC[C@@H]1NC(=O)C[C@@H]2CCCN2C(=O)CN(Cc2ccccc2CO)Cc2ccccc2CSC[C@@H](C(N)=O)NC1=O", "observed": "enzyme activity", "method": "fluorescence", "endpoint": "Ki", "result": "0.042 µM"}
{"note": "Some of these lines once more:"}
{"SMILES": "COc1c(/C=C/C(=O)c2ccc(O)cc2)ccc(O)c1O", "observed": "enzyme activity", "method": "fluorescence", "notes": "with preincubation", "endpoint": "IC50", "result": "36.9 µM"}
{"SMILES": "CN(C(=O)c1ccn2ncc(-c3ccc(C(N)=O)cc3)c2c1)c1ccc(C#N)cn1", "observed": "enzyme activity", "endpoint": "IC50", "result": "> 30 µM"}
